# Published values pooled from the literature.
# Numbers after ± are the reported error.
# CNR2: Cannabinoid receptor 2 (CNR2, Homo sapiens, UniProt P34972)
# Chain of UniProt P34972 (whole entry, unmodified, looked up): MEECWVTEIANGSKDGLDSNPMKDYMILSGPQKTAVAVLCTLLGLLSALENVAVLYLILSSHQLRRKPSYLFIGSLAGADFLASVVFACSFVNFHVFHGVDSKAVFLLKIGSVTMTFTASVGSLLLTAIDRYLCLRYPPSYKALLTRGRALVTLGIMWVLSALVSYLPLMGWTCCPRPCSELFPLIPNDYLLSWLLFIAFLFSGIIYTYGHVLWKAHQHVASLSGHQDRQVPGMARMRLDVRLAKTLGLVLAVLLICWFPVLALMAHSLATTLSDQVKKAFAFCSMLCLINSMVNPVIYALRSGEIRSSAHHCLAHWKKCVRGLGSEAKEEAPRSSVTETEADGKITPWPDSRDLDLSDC
SMILES,target or system,test,test system,setting,how to read,quantity,value
Cc1nonc1Cn1nnc2c(N3CC[C@H](O)C3)nc(C(C)(C)C)nc21,CNR2,"binding, [3H]-CP55940 displacement",,,relative to: CB1 Ki over CB2 Ki,selectivity ratio,> 939
CN(C(=O)n1cnc(-c2ccc[n+]([O-])c2)c1)C1CCCCC1,CNR2,radioligand binding,,"10 µM, together with: [3H]WIN-55,212-2",,inhibition,14%
O=c1[nH]cc(F)c(=O)[nH]1,human coronavirus OC43,virus-induced cell killing,MRC-5,screen,,maximum inhibition,24.9%
O=C(Nc1cnccc1Cl)N1CCN(Cc2ccc3c(c2)OC(F)(F)O3)CC1,CNR2,binding,,"50 µM, together with: [3H]WIN-55,212-2",,inhibition,7%
CCOC(=O)[C@](CC)(CCC[S+]([O-])CCOCCOCCNC(=O)OC(C)(C)C)NC(=O)c1ccc(C2CC2)c(Cc2ccc(F)cc2)n1 (some centres unmarked),CNR2,cAMP level,,together with: forskolin,relative to: hCB1 over hCB2,selectivity ratio,≥ 577 fold
Cc1c(C(=O)NN2CCCCC2)nn(-c2ccc(Cl)cc2Cl)c1-c1ccc(Cl)cc1,CNR2,binding,"CHO, membranes","0.0005 µM, together with: [3H]CP-55,940 0.5 nM",,displacement,56.5 ± 5.2%
C=CCC(CC)(NC(=O)c1ccc(C2CC2)c(Cc2ccc(F)cc2)n1)C(=O)OCC (centres unmarked),CNR2,radioligand binding,,,relative to: CB1 over CB2 (human),Ki ratio,3
O=C(Nc1cccnn1)N1CCC(=Cc2cccc(Oc3ccc(C(F)(F)F)cn3)c2)CC1,CNR2,binding,,"10 µM, together with: [3H]WIN-55,212-2",,inhibition,37%
CN1CCN(c2cc(-c3ccncc3)c(-c3ccc4ccccc4c3)nn2)CC1,CNR2,"agonist, FLIPR",,12.5 µM,,activation,-23.3%
CN1CCN(c2cccc(Nc3nc4c(-c5ccc(S(C)(=O)=O)cc5)cccn4n3)c2)CC1,human coronavirus OC43,virus-induced cell killing,MRC-5,screen,,maximum inhibition,3.45%
CC/C(=C(\c1ccc(O)cc1)c1ccc(OCCN(C)C)cc1)c1ccccc1,CNR2,refers to: cAMP,CHO-hCB2 cells,,,inverse agonist efficacy,193%
CCOC(=O)C(CC)(CCCSCCOCCOCCOCCOCCNC(=O)OC(C)(C)C)NC(=O)c1ccc(C2CC2)c(Cc2ccc(F)cc2)n1 (centres unmarked),CNR2,radioligand binding,,,relative to: CB1 over CB2 (human),Ki ratio,5
CCC(CC)(NC(=O)c1ccc(N2CC(OC)C2)c(OC[C@H]2C[C@@H]2CO)n1)C(=O)NCCOCCOCCNC(=O)c1ccc2c(c1)C1(OC2=O)c2ccc(N(C)C)cc2[Si](C)(C)c2cc(N(C)C)ccc21,CNR2,binding,,,relative to: CB1 Ki over CB2 Ki,selectivity ratio,> 6
COC(=O)[C@@H](NC(=O)c1nn(Cc2ccc(F)cc2)c2ccccc12)C(C)(C)C,CNR2,GTPase,,,relative to: compound,Gi GTP turnover minimum,98%
O=c1ccc2ccccc2o1,CNR2,agonist radioligand binding,,"10 µM, SafetyScreen44",,inhibition,-3.14%
CCCCCCC(C)(C)c1ccc(C2CC(O)CCC2CCCO)c(O)c1 (centres unmarked),CNR2,"forskolin-stimulated adenylyl cyclase, agonist",CHO cells,1 µM,,inhibition,86%
CCOC(=O)[C@H](CSC)NC(=O)c1ccc(C2CC2)c(Cc2ccc(F)cc2)n1,CNR2,radioligand binding,,,relative to: CB1 over CB2 (human),Ki ratio,6
CNC(=O)[C@@H](NC(=O)c1cc(OCC2(C)COC2)c(C2CC2)cn1)C(C)(C)C,CNR2,"binding, [3H]-CP55940 displacement",,,relative to: CB1 Ki over CB2 Ki,selectivity ratio,147
CCCCCCC(C)(C)c1ccc([C@@H]2C[C@H](O)CC[C@H]2CCCO)c(O)c1,"CNR2 (Homo sapiens, UniProt P34972, L182I)","cAMP inhibition, agonist, CAMYEL BRET biosensor",,together with: 10 µM forskolin,relative to: wild type receptor,Emax,75.6 ± 1.5%
CCC(CC)(NC(=O)c1ccc(C2CC2)c(Cc2ccc(F)cc2)n1)C(=O)NCCOCCOCCNC(=O)c1ccc2c(c1)C1(OC2=O)c2ccc(N(C)C)cc2[Si](C)(C)c2cc(N(C)C)ccc21,CNR2,binding,,,relative to: CB1 Ki over CB2 Ki,selectivity ratio,0.7

# Repeated from above:
SMILES,target or system,test,test system,setting,how to read,quantity,value
Cc1c(C(=O)NN2CCCCC2)nn(-c2ccc(Cl)cc2Cl)c1-c1ccc(Cl)cc1,CNR2,binding,"CHO, membranes","0.0005 µM, together with: [3H]CP-55,940 0.5 nM",,displacement,56.5 ± 5.2%
C=CCC(CC)(NC(=O)c1ccc(C2CC2)c(Cc2ccc(F)cc2)n1)C(=O)OCC (centres unmarked),CNR2,radioligand binding,,,relative to: CB1 over CB2 (human),Ki ratio,3
